Measurements collected from several papers.
Parts stem from different laboratories: compare values within a part only.
Chain of UniProt Q14680 (whole entry, looked up): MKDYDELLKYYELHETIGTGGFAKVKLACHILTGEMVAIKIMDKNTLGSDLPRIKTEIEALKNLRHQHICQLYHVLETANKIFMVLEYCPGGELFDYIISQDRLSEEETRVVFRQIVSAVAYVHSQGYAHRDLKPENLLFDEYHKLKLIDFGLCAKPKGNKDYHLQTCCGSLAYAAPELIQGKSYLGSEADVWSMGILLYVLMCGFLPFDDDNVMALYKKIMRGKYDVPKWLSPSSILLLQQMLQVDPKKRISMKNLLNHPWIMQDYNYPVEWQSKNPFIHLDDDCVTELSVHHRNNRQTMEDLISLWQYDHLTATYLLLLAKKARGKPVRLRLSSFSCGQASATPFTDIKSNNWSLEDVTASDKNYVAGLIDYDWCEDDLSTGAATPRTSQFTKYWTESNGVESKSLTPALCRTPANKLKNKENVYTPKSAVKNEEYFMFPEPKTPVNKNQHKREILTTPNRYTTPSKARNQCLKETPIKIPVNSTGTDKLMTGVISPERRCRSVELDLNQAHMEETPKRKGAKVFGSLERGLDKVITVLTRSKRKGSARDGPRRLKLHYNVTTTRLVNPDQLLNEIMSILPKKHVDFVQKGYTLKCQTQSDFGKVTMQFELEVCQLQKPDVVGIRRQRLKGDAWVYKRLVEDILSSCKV

Series 1 — method: protein binding microarray; molecule type: double-stranded DNA, one strand shown; matrix: in vitro; tested at: not given; relative to: not given; direction: higher = stronger binding; quantity: E-score
Target: Histone acetyltransferase KAT6A, winged helix 1, GST fusion (KAT6A, Homo sapiens, UniProt Q92794, residues 1-85)
Setting: 8-mer, flanks averaged, mean of 2 arrays, mostly near background
Residues (chain): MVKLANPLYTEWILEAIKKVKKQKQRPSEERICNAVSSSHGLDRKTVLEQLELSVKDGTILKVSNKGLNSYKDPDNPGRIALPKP
GATGGAAA: -0.0658
AACTCCAT: -0.0621
AAGAGCAC: -0.162
ACGACGCA: 0.0255
AGTTACCG: 0.153
CTCGGCGA: 0.306
CCGACGTA: 0.267
CCGATCAC: 0.0147

Series 2 — method: RNAcompete; molecule type: RNA; matrix: in vitro; tested at: 20 nM; setting: 7-mer, probes averaged, single round; relative to: mean of 7-mers; direction: higher = stronger binding; quantity: 7-mer Z-score
Target: PABPC1L2, full length, GST fusion (mouse, UniProt A0ABA7IW68)
Construct (chain): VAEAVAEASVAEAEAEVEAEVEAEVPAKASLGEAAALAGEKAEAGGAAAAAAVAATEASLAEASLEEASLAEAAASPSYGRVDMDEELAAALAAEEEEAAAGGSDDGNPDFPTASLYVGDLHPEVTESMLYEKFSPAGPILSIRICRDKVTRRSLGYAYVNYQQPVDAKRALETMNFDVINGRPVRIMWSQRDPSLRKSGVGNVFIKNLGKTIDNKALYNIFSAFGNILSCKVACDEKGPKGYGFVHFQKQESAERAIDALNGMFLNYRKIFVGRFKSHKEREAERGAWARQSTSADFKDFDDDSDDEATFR
GGAAAAU: 2.34
CUUGUCC: -0.34
UCCUUGG: -0.304
AAAGGUG: 1.06
CCUUUGU: -0.418
CCGAGAA: 0.207
CUAUGCA: -0.101
CAGUUAU: -0.0826

Series 3 — method: aptamer microarray, sandwich; molecule type: DNA with 2'F-ANA; matrix: in vitro; tested at: 200 nM; together with: Cy3 exosite-II aptamer, 400 nM; direction: higher = stronger binding; quantity: mean fluorescence intensity; strand: GGTTGGTGTGGTTGG
Target: Prothrombin, mature alpha-thrombin (F2, Homo sapiens, UniProt P00734)
Setting: whole 15-mer aptamer, many near background
2'F-ANA at 5 7 8 9 10 11 13: 77.2 a.u.
2'F-ANA at 2 3 5 7 8 11 12 14 15: 79.9 a.u.
2'F-ANA at 2 4 5 6 10 11 14: 49.1 a.u.
2'F-ANA at 1 2 4 5 6 7 9 11 13 14: 48.2 a.u.
2'F-ANA at 1 3 4 5 7 8 12 15: 132 a.u.
2'F-ANA at 1 5 7 8 13 14 15: 53.6 a.u.
2'F-ANA at 1 5 7 10 11: 47.2 a.u.
2'F-ANA at 1 6 7 8 11: 161 a.u.

Other studies, line by line
Cc1nc2cc3nc(-c4cccs4)cnc3cc2n1C
remaining activity (Maternal embryonic leucine zipper kinase (MELK, Homo sapiens, UniProt Q14680); enzyme activity, inhibitor; 0.5 µM; relative to: control): 95.6%
